{"data": "Experimental data collected from several papers", "organism": "Plasmodium falciparum", "note": "Protocols differ between the studies behind these lines. ± gives the spread as reported."}
{"Structure (SMILES)": "C=CC1CN2CCC1CC2C(OC(=O)NCCCCCCNC(=O)OC(c1ccnc2ccc(OC)cc12)C1CC2CCN1CC2C=C)c1ccnc2ccc(OC)cc12 (stereo not shown)", "test": "parasite growth", "system": "FCB, chloroquine-resistant", "IC50": "0.032 ± 0.0054 µM"}
{"Structure (SMILES)": "CC[C@H](C)[C@@H]1NC(=O)[C@H](CCCCN)NC(=O)[C@H](CCCCN)NC(=O)[C@H](Cc2ccc(O)cc2)NC(=O)[C@H](CC(C)C)NC(=O)[C@@H]2CCCN2C(=O)[C@H](C)NC(=O)CNC(=O)CNC(=O)[C@H](CO)NC(=O)CNC(=O)CNC(=O)[C@H](CO)NC(=O)[C@H](CCC(=O)O)NC(=O)[C@H](CC(C)C)NC(=O)[C@H](CC(C)C)NC(=O)[C@H](CCCCN)NC(=O)[C@H](CCCCN)NC(=O)[C@H]([C@@H](C)CC)NC(=O)[C@H]([C@@H](C)CC)NC(=O)[C@H](CCCCN)NC(=O)[C@H](CCCCN)NC(=O)[C@H](Cc2ccc(O)cc2)NC(=O)[C@H](CC(C)C)NC(=O)[C@@H]2CCCN2C(=O)CNC(=O)CNC(=O)[C@@H](NC(=O)CN)CSSC[C@@H](C(=O)O)NC(=O)[C@H](CC(C)C)NC(=O)[C@H](CCCCN)NC(=O)[C@H](CCCCN)NC(=O)[C@H]([C@@H](C)CC)NC1=O", "test": "parasite growth", "system": "3D7", "setting": "72 h, 5% serum plus Albumax II", "IC50": "> 67.5 µM"}
{"Structure (SMILES)": "CC1N=C(CCCCCCCCCCC2=CC(CCCCCCCCCCC3=NC(C)C(O)CC3)C3CCCN3C2)CCC1O (stereo not shown)", "test": "pLDH", "system": "D6 chloroquine-sensitive", "IC50": "0.56 ± 0.005 µg/mL"}
{"Structure (SMILES)": "COc1cc(O)c(-c2ccc(OC)c3c(O)cc(C)c(-c4cc(-c5c(O)cc(OC)c6c5C[C@@H](C)N[C@@H]6C)c5cc(C)cc(OC)c5c4O)c23)c2c1[C@@H](C)N(C)[C@H](C)C2", "test": "parasite growth", "system": "K1", "setting": "drug-resistant strain, blood stage", "IC50": "0.026 µM"}
{"Structure (SMILES)": "CCCCCCCCc1cc(CN(Cc2ccccn2)Cc2ccccn2)c(O)c(CN(Cc2ccccn2)Cc2ccccn2)c1", "test": "growth, [3H]hypoxanthine incorporation", "system": "HB3 chloroquine-sensitive", "setting": "48 h", "IC50": "0.195 ± 0.039 µM"}
{"Structure (SMILES)": "CC[C@H](C)[C@@H]1NC(=O)[C@H](CCCCN)NC(=O)[C@H](CCCCN)NC(=O)[C@H](Cc2ccc(O)cc2)NC(=O)[C@H](CC(C)C)NC(=O)[C@@H]2CCCN2C(=O)[C@H](C)NC(=O)CNC(=O)CNC(=O)[C@H](CO)NC(=O)CNC(=O)CNC(=O)[C@H](CO)NC(=O)[C@H](CCC(=O)O)NC(=O)[C@H](CC(C)C)NC(=O)[C@H](CC(C)C)NC(=O)[C@H](CCCCN)NC(=O)[C@H](CCCCN)NC(=O)[C@H]([C@@H](C)CC)NC(=O)[C@H]([C@@H](C)CC)NC(=O)[C@H](CCCCN)NC(=O)[C@H](CCCCN)NC(=O)[C@H](Cc2ccc(O)cc2)NC(=O)[C@H](CC(C)C)NC(=O)[C@@H]2CCCN2C(=O)[C@H](C)NC(=O)CNC(=O)[C@@H]2CSSC[C@H](NC(=O)[C@H](CC(C)C)NC(=O)[C@H](CCCCN)NC(=O)[C@H](CCCCN)NC(=O)[C@H]([C@@H](C)CC)NC1=O)C(=O)N[C@@H](CCC(N)=O)C(=O)N[C@@H](CC(N)=O)C(=O)NCC(=O)N2", "test": "parasite growth", "system": "3D7", "setting": "72 h, Albumax II medium, no serum", "IC50": "19.1 ± 1.9 µM"}
{"Structure (SMILES)": "Clc1ccc(C2=CC(c3ccc[nH]3)=NC2=CNC2CCCCC2)cc1", "test": "parasite growth", "system": "7G8, chloroquine-resistant", "IC50": "0.415 µM"}
{"Structure (SMILES)": "O=C(O)[C@@H]1Cc2c([nH]c3ccccc23)[C@@H](c2ccc(Br)cc2Br)N1", "test": "parasite growth", "system": "Dd2", "setting": "72 h", "IC50": "0.59 ± 0.02 µM"}
{"Structure (SMILES)": "COc1ccc2cc1Oc1cc3c(cc1OC)CCN(C)C3Cc1ccc(cc1)Oc1c(O)c(OC)cc3c1C(C2)N(C)CC3 (stereo not shown)", "test": "parasite growth, SYBR green I", "system": "3D7", "IC50": "0.571 ± 0.0638 µM"}
{"Structure (SMILES)": "Oc1c(CN(Cc2ccccn2)Cc2ccccn2)cc(CCn2cc(COCCOCCOCCOCc3cn(CCc4cc(CN(Cc5ccccn5)Cc5ccccn5)c(O)c(CN(Cc5ccccn5)Cc5ccccn5)c4)nn3)nn2)cc1CN(Cc1ccccn1)Cc1ccccn1", "test": "growth, [3H]hypoxanthine incorporation", "system": "HB3 chloroquine-sensitive", "setting": "48 h", "IC50": "0.023 ± 0.003 µM"}
{"Structure (SMILES)": "CC(C)C1=CC(=CNC2CCCCCC2)N=C1c1ccc[nH]1", "test": "parasite growth", "system": "7G8, chloroquine-resistant", "IC50": "1.98 µM"}
{"Structure (SMILES)": "OCCCCCCCCOCCCc1cccnc1", "test": "anti-HRPII ELISA", "system": "W2 chloroquine-resistant", "setting": "72 h", "IC50": "> 188 µM"}
{"Structure (SMILES)": "CCC1=C(C)C(c2ccc[nH]2)=NC1=CNC1CCCCCCC1", "test": "parasite growth", "system": "7G8, chloroquine-resistant", "IC50": "0.128 µM"}
{"Structure (SMILES)": "CC(=O)O[C@@H]1C[C@H]2C(C)(C)C(=O)C=C[C@]2(C)[C@H]2CC[C@]3(C)C(=CC[C@H]3C3=CC(O)OC3=O)[C@@]21C (stereo partly shown)", "test": "[3H]hypoxanthine incorporation", "system": "W2, chloroquine-resistant", "IC50": "1.1 µM"}
{"Structure (SMILES)": "CCC1=C(C)C(=CNC2CCCCCCC2)N=C1c1ccc[nH]1", "test": "parasite growth", "system": "Dd2, chloroquine-resistant", "IC50": "0.06 µM"}
{"Structure (SMILES)": "O=C1C(O)=C(I)C(=O)c2ccccc21", "test": "parasite growth, SYBR Green", "system": "F32", "setting": "drug-resistant strain, blood stage", "IC50": "> 50 µM"}
{"Structure (SMILES)": "CCC1=C(C)C(c2ccc[nH]2)=NC1=CNC12CC3CC(CC(C3)C1)C2", "test": "parasite growth", "system": "Dd2, chloroquine-resistant", "IC50": "0.014 µM"}
{"Structure (SMILES)": "CC[C@H](C)[C@@H]1NC(=O)[C@H](CCCCN)NC(=O)[C@H](CCCCN)NC(=O)[C@H](Cc2ccc(O)cc2)NC(=O)[C@H](CC(C)C)NC(=O)[C@@H]2CCCN2C(=O)[C@H](C)NC(=O)CNC(=O)CNC(=O)[C@H](CO)NC(=O)CNC(=O)CNC(=O)[C@H](CO)NC(=O)[C@H](CCC(=O)O)NC(=O)[C@H](CC(C)C)NC(=O)[C@H](CC(C)C)NC(=O)[C@H](CCCCN)NC(=O)[C@H](CCCCN)NC(=O)[C@H](C(C)C)NC(=O)[C@H]([C@@H](C)CC)NC(=O)[C@H](CCCCN)NC(=O)[C@H](CCCCN)NC(=O)[C@H](Cc2ccc(O)cc2)NC(=O)[C@H](CC(C)C)NC(=O)[C@@H]2CCCN2C(=O)CNC(=O)CNC(=O)[C@@H](NC(=O)CN)CSSC[C@@H](C(N)=O)NC(=O)[C@H](CC(C)C)NC(=O)[C@H](CCCCN)NC(=O)[C@H](CCCCN)NC(=O)[C@H](C(C)C)NC1=O", "test": "parasite growth", "system": "3D7", "setting": "72 h, Albumax II medium, no serum", "IC50": "12.7 ± 0.7 µM"}
{"Structure (SMILES)": "CCC1=CC(c2ccc[nH]2)=NC1=CNC1CCCCCC1", "test": "parasite growth", "system": "7G8, chloroquine-resistant", "IC50": "> 0.25 µM"}
{"Structure (SMILES)": "CC[C@H](C)[C@@H]1NC(=O)[C@H](CCCCN)NC(=O)[C@H](CCCCN)NC(=O)[C@H](Cc2ccc(O)cc2)NC(=O)[C@H](CC(C)C)NC(=O)[C@@H]2CCCN2C(=O)[C@H](C)NC(=O)CNC(=O)CNC(=O)[C@H](CO)NC(=O)CNC(=O)CNC(=O)[C@H](CO)NC(=O)[C@H](CCC(=O)O)NC(=O)[C@H](CC(C)C)NC(=O)[C@H](CC(C)C)NC(=O)[C@H](CCCCN)NC(=O)[C@H](CCCCN)NC(=O)[C@H]([C@@H](C)CC)NC(=O)[C@H]([C@@H](C)CC)NC(=O)[C@H](CCCCN)NC(=O)[C@H](CCCCN)NC(=O)[C@H](Cc2ccc(O)cc2)NC(=O)[C@H](CC(C)C)NC(=O)[C@@H]2CCCN2C(=O)[C@H](C)NC(=O)CNC(=O)CNC(=O)[C@H](CO)NC(=O)CNC(=O)CNC(=O)[C@H](CO)NC(=O)[C@H](CCC(=O)O)NC(=O)[C@H](CC(C)C)NC(=O)[C@H](CC(C)C)NC(=O)[C@H](CCCCN)NC(=O)[C@H](CCCCN)NC(=O)[C@H]([C@@H](C)CC)NC1=O", "test": "parasite growth", "system": "3D7", "setting": "72 h, Albumax II medium, no serum", "IC50": "7.9 ± 0.8 µM"}
{"Structure (SMILES)": "CCC1=CC(=CNC23CC4CC(CC(C4)C2)C3)N=C1c1ccc[nH]1", "test": "parasite growth", "system": "Dd2, chloroquine-resistant", "IC50": "0.045 µM"}
{"Structure (SMILES)": "CCCCNCC(O)Cn1c2ccc(Cl)cc2c2cc(Cl)ccc21 (stereo not shown)", "test": "SYBR Green I", "system": "Dd2 chloroquine-resistant", "setting": "72 h", "IC50": "0.091 ± 0.026 µM"}
